# Measurements collected from several papers.
# Lines come from different studies, so protocols differ. Several values in a cell are separate wells, animals, samples, runs or records. Numbers after ± are the reported error.
SMILES,cell line,test,setting,scale,quantity,value
Cn1ncc2cc(-c3cncc(Cl)c3N3CCC4(CCNC4=O)CC3)ccc21,LS174T,"gene expression, microarray, item: TNFAIP2 mRNA","concentration not given, 4 h",baseline: untreated cells,log2 fold change,1.6
CC(C)c1ccc(N(C)c2ccc3c(c2)OCC[C@H]3CNc2cnccc2C(=O)O)cc1,HSC-4,cell viability,7 days,,IC50,0.00695 µM
CCN(CC)CC(=O)Nc1cccc(-n2cc(-c3ccc4ccc(-c5cn(-c6cccc(NC(=O)CN(CC)CC)c6)nn5)cc4c3)nn2)c1,RCC4,"PCR angiogenesis array, item: SERPINF1","5 x IC50, 6 h, normoxia",baseline: untreated,fold regulation,-1.28
CNc1ncnc2c1ncn2C1OC(CO)C(O)C1O (stereo not drawn),mock-transfected cells,"TGFα shedding, agonist",10 µM,baseline: unstimulated vehicle control,AP-TGFα release,2.26% and 2.75% and 2.41%
CCC(=CCc1c(O)cc2c(c1O)C(=O)CC(c1ccc(O)cc1)O2)CC (stereo not drawn),HeLa,"cell growth or viability, MTT","25 µM, 48 h",,inhibition,73.4%
CC(C)Cc1ccc(C(C)C(=O)[Se]CC(=O)Nc2cccc(C(F)(F)F)c2)cc1 (stereo not drawn),"NCI60 prostate subpanel (PC-3, DU-145)","cell growth, inhibitor",five-dose,,GI50,1.82 µM
CN1CCCNC(=O)c2cccc(c2)C(=O)NCCCN(C)CCCNc2cccc3c2C(=O)c2cccc(c2C3=O)NCCC1,SAS,"RNA-Seq, item: MACC1 mRNA","1 µM, 6 h",baseline: untreated cells,log2 fold change,-1.9
Cc1ncsc1-c1ccc(C(C)NC(=O)C2CC(O)CN2C(=O)C(NC(=O)CCCCCCCCCCN2CCCC(Nc3ncc(Cl)c(Nc4ccccc4S(=O)(=O)C(C)C)n3)C2)C(C)(C)C)cc1 (stereo not drawn),22Rv1,"RNA-seq, item: SORBS2 mRNA",concentration not given,baseline: DMSO,log2 fold change,-2
NCCCC[C@H](NC(=O)[C@H](Cc1ccc(O)cc1)NC(=O)[C@H](CCCCN)NC(=O)[C@H](Cc1c[nH]c2ccccc12)NC(=O)[C@H](Cc1ccccc1)NC(=O)[C@H](Cc1ccccc1)NC(=O)Cc1ccc(-c2ccccc2)cc1)C(=O)NCC(=O)N[C@@H](Cc1c[nH]cn1)C(=O)N1CCC[C@H]1C(=O)NCC(=O)NCC(=O)N1CCC[C@H]1C(=O)N[C@@H](CCC(N)=O)C(=O)N[C@@H](CC(=O)O)C(=O)N[C@@H](CC(=O)O)C(=O)N[C@@H](CC(=O)O)C(=O)N[C@@H](CC(=O)O)C(=O)N[C@@H](CC(=O)O)C(=O)N[C@@H](CC(=O)O)C(=O)O,RAW264.7-derived osteoclasts,,"concentration not given, 6 days, added: RANKL",baseline: RANKL alone,TRAP-positive osteoclast number,decreased
O=C(C[Se]C(=O)C12CC3CC(CC(C3)C1)C2)Nc1cccc(C(F)(F)F)c1,"NCI60 prostate subpanel (PC-3, DU-145)","cell growth, inhibitor",five-dose,,GI50,2.93 µM
COc1ccc(NC(=O)c2ccc3[nH]c(-c4ccc(N(C)C)cc4)nc3c2)cn1,HCT116,IncuCyte,"concentration not given, 2 h",,dead cell to confluence ratio,2.67 and 0.872 and 2.97
O=C(C[Se]C(=O)c1cc2ccccc2o1)Nc1cccc(C(F)(F)F)c1,"NCI60 prostate subpanel (PC-3, DU-145)",cell growth,"10 µM, 48 h, one-dose",,mean growth percent,-79.9%
Cc1cc(NC2CCN(C)CC2)ccc1-c1cc2c(N3CCC[C@H](C(=O)N[C@H](C)c4ccccc4)C3)ncnc2[nH]1,NCI-H3122,"cell growth or viability, MTT","1 µg/mL, 72 h",,inhibition,80.5%
O=C(Nc1nnc2c1c(-c1ccc(Cl)cc1)nc1sc(=Cc3ccco3)c(=O)n12)c1ccccc1 (mixture of isomers),MDA-MB-231/ATCC,NCI60 SRB,10 µM,,growth percent,53.8%
COC(=O)c1cc(NC2=NC(=O)C(=Cc3ccc(C)cc3)S2)ccc1OC(C)=O,MCF7,"GC-MS, item: Trimethylamine",1 µM,baseline: DMSO,metabolite level,-0.71 fold change
CSCC[C@H](NC(=O)[C@H](CCC(N)=O)NC(=O)[C@H](CCCCN)NC(=O)[C@H](CCCNC(=N)N)NC(=O)[C@H](Cc1ccc(O)cc1)NC(=O)[C@H](CCCNC(=N)N)NC(=O)[C@H](CO)NC(=O)[C@H](Cc1ccc(O)cc1)NC(=O)[C@H](CO)NC(=O)[C@H](CC(=O)O)NC(=O)[C@@H](NC(=O)[C@@H](N)Cc1ccccc1)[C@@H](C)O)C(=O)N[C@@H](C)C(=O)N[C@H](C(=O)N[C@@H](CCCCN)C(=O)N[C@@H](CCCCN)C(=O)N[C@@H](Cc1ccc(O)cc1)C(=O)N[C@@H](CC(C)C)C(=O)N[C@@H](C)C(=O)N[C@@H](C)C(=O)N[C@H](C(=O)N[C@@H](CC(C)C)C(=O)NCC(=O)N[C@@H](CCCCN)C(=O)N[C@@H](CCCNC(=N)N)C(=O)N[C@@H](Cc1ccc(O)cc1)C(=O)N[C@@H](CCCCN)C(=O)N[C@@H](CCC(N)=O)C(=O)N[C@@H](CCCCn1cc(C[C@H](NC(=O)CNC(=O)[C@H](CO)NC(=O)[C@H](CCCNC(=N)N)NC(=O)[C@H](CO)NC(=O)[C@H](CC(C)C)NC(=O)[C@H](CC(C)C)NC(=O)CNC(=O)[C@H](C)NC(=O)[C@H](CC(C)C)NC(=O)[C@H](CCCNC(=N)N)NC(=O)[C@H](Cc2c[nH]cn2)NC(=O)[C@@H](NC(=O)[C@@H](N)C(C)C)[C@@H](C)O)C(=O)N[C@H](C(=O)N[C@H](C(=O)N[C@@H](CCCCN)C(=O)N[C@@H](CC(N)=O)C(=O)N[C@@H](CC(N)=O)C(=O)N[C@@H](Cc2ccccc2)C(=O)N[C@H](C(=O)N2CCC[C@H]2C(=O)N[C@H](C(=O)N[C@@H](CC(N)=O)C(=O)N[C@H](C(=O)NCC(=O)N[C@@H](CO)C(=O)N[C@@H](CCCCN)C(=O)N[C@@H](C)C(=O)N[C@@H](Cc2ccccc2)C(N)=O)C(C)C)[C@@H](C)O)C(C)C)C(C)C)C(C)C)nn1)C(=O)N[C@H](C(=O)N[C@@H](CCCCN)C(=O)N[C@@H](CC(N)=O)C(=O)N[C@@H](CCCCN)C(N)=O)C(C)C)C(C)C)C(C)C,transfected COS-7 cells,"cAMP accumulation, antagonist",added: VIP,,pA2,5.45
NC1=C(Cl)C(=O)c2cccc([N+](=O)[O-])c2C1=O,HuCC-A1,MTT,,baseline: IC50 MRC-5 over IC50 HuCC-A1,selectivity index,1.08
CCN(C(=O)c1cc(F)ccc1Oc1nncnc1N1CCC2(C1)CN([C@H](CCCN(C)CCOC)C(C)C)C2)C(C)C,SK-HEP1,cell growth or viability,7 days,,GI50,> 10 µM
CC(=O)Oc1ccccc1C(=O)[Se]CC(=O)Nc1cccc(C(F)(F)F)c1,"NCI60 prostate subpanel (PC-3, DU-145)","cell growth, inhibitor",five-dose,,GI50,3.66 µM
Cc1cccc(-c2cccc(C)n2)n1.Cc1cccc(-c2cccc(C)n2)n1.F[P-](F)(F)(F)(F)F.F[P-](F)(F)(F)(F)F.[Ru+2].c1ccc2c(-c3nc4c5cccnc5c5ncccc5c4[nH]3)c3ccccc3cc2c1,SK-MEL-28,cell viability,"1% O2, added: blue light 453 nm, 100 J/cm2",,EC50,36.4 ± 1 µM
Cn1c(=O)n(C2CCC(=O)NC2=O)c2ccc(C3CCN(CC(=O)Nc4cccc(CS(=O)(=O)N5CC[C@H](Nc6cccc(-c7sc(C(=O)O)c(OCC(=O)O)c7Cl)c6)CC5(C)C)c4)CC3)cc21 (stereo partly drawn),B16-F10,"HTRF, item: phospho-STAT1 Tyr701","1.1 µM, added: IFN-γ",baseline: DMSO,fold change,5.57 and 6.19 and 5.74 and 5.51 and 5.69 and 5.53
CC(C)[C@H](NC(=O)[C@H](CCCNC(=N)N)NC(=O)C[C@@H](N)CCCN)C(=O)N[C@@H](Cc1c[nH]cn1)C(=O)N[C@@H](Cc1ccccc1)C(N)=O,HeLa cells,"calcium release, Fluo-4 imaging",100 µM,,responder cells,0%
C=CC(=O)N1[C@@H](c2ccc3c(c2)OCO3)c2[nH]c3ccccc3c2C[C@H]1C(=O)NC1CC1,rat DRG neurons,,"0.01372 µM, 48 h, added: vincristine 40 nM",,neuron degeneration,83.2% and 82.6%
Cc1cccc(-c2cccc(C)n2)n1.Cc1cccc(-c2cccc(C)n2)n1.F[P-](F)(F)(F)(F)F.F[P-](F)(F)(F)(F)F.[Ru+2].c1ccc(-c2nc3c4cccnc4c4ncccc4c3[nH]2)cc1,SK-MEL-28,cell viability,"dark, 1% O2",,EC50,281 ± 15 µM
CC(C)(C)OC(=O)C1=C[C@@](C)(C(=O)OCC#Cc2ccncc2)CCC1=O,HEK293 AP-1 reporter,,"concentration not given, unit not given, added: PMA",baseline: PMA alone,AP-1 reporter activity,0.63
CNS(=O)(=O)Nc1nccc(Cc2c(C)c3ccc(Oc4ncccc4F)cc3oc2=O)c1F,U-373 MG,"cell viability, inhibitor, CellTiter-Glo",7 days,,IC50,> 1 µM
Cc1cc(NC2CCN(C)CC2)ccc1-c1cc2c(N3CCC[C@H](C(=O)NCc4ccc(OC(F)(F)F)cc4)C3)ncnc2[nH]1,NCI-H3122,"cell growth or viability, MTT","1 µg/mL, 72 h",,inhibition,69.7%
